# Measurements from different studies.
# Parts stem from different laboratories: compare values within a part only.

# Set 1 — technique: protein binding microarray; molecule type: double-stranded DNA, one strand shown; medium: in vitro; tested at: not given; reference: not given; reading: higher = stronger binding
# Target: Histone acetyltransferase KAT6A, winged helix 1, GST fusion (KAT6A, Homo sapiens, UniProt Q92794, residues 1-85)
# Setting: 8-mer, flanks averaged, mean of 2 arrays, mostly near background
# Target sequence (chain): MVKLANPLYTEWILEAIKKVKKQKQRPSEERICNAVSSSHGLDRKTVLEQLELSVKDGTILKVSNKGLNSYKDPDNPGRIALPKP
Strand,E-score
AGGACCAG,-0.0474
GTTTCCAA,-0.303
ACGTCGAT,-0.0606
AGATCCTC,-0.211
GATCGCAC,0.0867
AAAATTAC,0.00132
GAGCGCAA,0.174
ATCCAGTG,-0.156
CATAGGAA,-0.17
AACCGTAC,0.207
ACTGGTCT,-0.161
ATATTGTA,0.0192
CTTTAACA,0.0884
CAAGGTGG,-0.151
ATGCTAAT,-0.172
AGAAGGTA,-0.182
ATGACAGG,-0.168
GGGGCCAA,-0.0315
CGCCCCTC,0.159
TGAGTACA,-0.0915
ATACGGAT,0.126
ACACGGGC,0.232
CCGCCAGA,-0.0269
CTCCGTAC,0.248
ACGGGCCC,0.382

# Set 2 — technique: RNAcompete; molecule type: RNA; medium: in vitro; tested at: 20 nM; setting: 7-mer, probes averaged, single round; reference: mean of 7-mers; reading: higher = stronger binding
# Target: PABPC1L2, full length, GST fusion (mouse, UniProt A0ABA7IW68)
# Residues (chain): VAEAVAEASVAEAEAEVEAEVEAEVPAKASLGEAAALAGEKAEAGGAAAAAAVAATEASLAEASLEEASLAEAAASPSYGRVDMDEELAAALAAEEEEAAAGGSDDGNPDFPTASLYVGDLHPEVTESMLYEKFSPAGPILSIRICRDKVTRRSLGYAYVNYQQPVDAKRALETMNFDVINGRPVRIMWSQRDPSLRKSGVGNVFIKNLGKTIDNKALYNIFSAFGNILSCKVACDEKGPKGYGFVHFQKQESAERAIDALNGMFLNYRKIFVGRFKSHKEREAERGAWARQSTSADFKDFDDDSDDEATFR
Strand,7-mer Z-score
GUCAAGA,0.0189
UGUUAAC,-0.275
CGAAAAA,13.1
AGGAGGA,0.35
GGGCUUU,0.0932
UUUAAUU,-0.0645
AUAAACU,1.26
AUGAUGG,0.222
GCCAAGA,-0.021
CAUUGUG,-0.22
CGAGGCA,0.0768
AUCGCAG,-0.166
GUUAGUG,-0.177
AGAUAUU,-0.344
GAUAAUC,-0.233
CUCCUAC,-0.325
AUGCUGC,-0.213
GAUAAGA,0.229
CGUGACG,-0.0264
GCGCCCU,-0.237
GUGGGCU,0.0932
CUCUCUC,-0.465
CAGUACU,-0.325
GCCGACG,-0.18
UUAUAGA,-0.0826

# Set 3 — technique: protein-binding microarray; molecule type: double-stranded DNA, one strand shown; medium: in vitro; tested at: 250 nM; setting: 60-bp whole probe; together with: salmon DNA 0.4 mg/ml; reference: random background probes; reading: higher = stronger binding; constant ends, left off below: GCCTAGCAC … GTCTTGATTCGCTTGACGCTGCTG
# Target: Interferon regulatory factor 7, full length, phosphomimetic (IRF7, Homo sapiens, UniProt Q92985, residues 1-503, S101K/S471D/S472D/S475D/S476D/S477D/S483D/S484D/S487D)
# Residues (chain): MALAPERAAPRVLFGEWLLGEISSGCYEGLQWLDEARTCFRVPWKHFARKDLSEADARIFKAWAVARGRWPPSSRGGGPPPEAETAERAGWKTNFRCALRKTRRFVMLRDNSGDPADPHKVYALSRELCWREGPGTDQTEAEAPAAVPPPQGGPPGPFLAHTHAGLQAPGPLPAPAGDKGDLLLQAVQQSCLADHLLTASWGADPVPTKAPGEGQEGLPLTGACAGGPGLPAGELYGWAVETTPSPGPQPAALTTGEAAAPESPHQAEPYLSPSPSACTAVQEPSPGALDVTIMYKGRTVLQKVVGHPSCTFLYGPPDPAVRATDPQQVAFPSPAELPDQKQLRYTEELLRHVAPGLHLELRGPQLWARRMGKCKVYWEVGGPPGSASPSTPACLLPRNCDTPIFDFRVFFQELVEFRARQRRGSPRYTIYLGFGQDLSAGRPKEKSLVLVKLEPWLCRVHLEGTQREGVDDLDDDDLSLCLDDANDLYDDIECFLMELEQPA
Strand,log fluorescence [z-score]
GACGGTTCCCTACTGCTGACGTGCTAG,0.365
AGAGCTAAGTGAGTGTCATCGTGCTAG,-0.974
TTAGGTTTAGGTATCGGTTAGTGCTAG,1.26
GATGATCTCAGTTTCGAGACGTGCTAG,3.64
TCCATGCTGGCTTTTATGCGGTGCTAG,-1.35
TTAGATTCCGGGTTTCGATTAGTGCTA,7.4
TTAGGTTTTGGTTTCGGTTAGTGCTAG,10.7
GACGTTTTCGGTTCCGGGACGTGCTAG,5.47
TTAGGTATCGACACTGGGTCAGTGCTA,-0.149
TCAGCAAAAATGATTGGACTGTGCTAG,-0.17
GTAGGTTTCGGTTTCGGTTAGTGCTAG,15.2
CTAATTTTCATTTTCCAAATGTGCTAG,3.47
TTAGGTTTCGGGACCGGGTTAGTGCTA,3.92

# Set 4 — technique: aptamer microarray, sandwich; molecule type: DNA with 2'F-ANA; medium: in vitro; tested at: 200 nM; together with: Cy3 exosite-II aptamer, 400 nM; reading: higher = stronger binding; strand: GGTTGGTGTGGTTGG
# Target: Prothrombin, mature alpha-thrombin (F2, Homo sapiens, UniProt P00734)
# Setting: whole 15-mer aptamer, many near background
Modification,mean fluorescence intensity [a.u.]
2'F-ANA at 2 3 4 5 11 12 13 14 15,49.8
2'F-ANA at 4 5 7 9 11 12 15,95.1
2'F-ANA at 1 2 3 4 5 6 8 9 12 13 14,48.8
2'F-ANA at 1 2 5 7 10 14 15,47.1
2'F-ANA at 2 4 6 9 12,578
2'F-ANA at 1 3 4 8 10 11 12,72
2'F-ANA at 1 5 6 8 10 11 12 13,46.6
2'F-ANA at 1 3 4 5 6 7 12 14,47.5
2'F-ANA at 2 12 13,742
2'F-ANA at 11 12 14 15,254
2'F-ANA at 1 2 3 6 7 9 11 13 14 15,63.3
2'F-ANA at 1 4 5 6 7 9 13 15,54.3
2'F-ANA at 1 2 4 9 10 11 12 13 15,56.9
2'F-ANA at 1 2 3 4 9 12 13 14 15,205
2'F-ANA at 1 2 4 6 7 8 11 12,226
2'F-ANA at 6 8 9 13,377
2'F-ANA at 2 4 6 10 11 12 14,68.7
2'F-ANA at 1 5 6 11 13 14 15,47

# Set 5 — technique: protein-binding microarray; molecule type: double-stranded DNA, one strand shown; medium: in vitro; tested at: 0.8 µM; setting: whole 60-bp probe, no competitor; reading: higher = stronger binding; constant ends, left off below: … GTCTTGATTCGCTTGACGCTGCTG
# Target: Centromere-binding protein 1, full length, N-terminal tag (CBF1, Saccharomyces cerevisiae, UniProt P17106, residues 1-351)
# Chain of UniProt P17106 (whole entry, looked up): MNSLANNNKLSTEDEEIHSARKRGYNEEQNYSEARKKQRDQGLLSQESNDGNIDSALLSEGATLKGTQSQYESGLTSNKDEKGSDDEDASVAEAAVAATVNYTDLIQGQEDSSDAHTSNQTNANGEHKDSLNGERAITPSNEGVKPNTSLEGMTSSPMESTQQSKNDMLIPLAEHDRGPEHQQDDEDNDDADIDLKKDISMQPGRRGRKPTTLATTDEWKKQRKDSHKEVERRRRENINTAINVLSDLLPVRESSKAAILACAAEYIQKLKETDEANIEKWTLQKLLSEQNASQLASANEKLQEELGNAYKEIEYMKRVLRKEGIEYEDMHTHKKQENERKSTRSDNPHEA
Strand,fluorescence intensity [a.u.]
CTATTATGAAAAGGGAACGTGATATAAAAAAACTTC,2450
CTAGTACTACCGAATCACCAGGTGAATATCTCTTTC,568
CCTAACTACTATAATCACGTTACATAGCTTCGTACA,1500
CTAATATTATACGAAAACGTGCAGAACGGCACATTC,680
GAACATTGGCGAAAGGTGATGGTGTAAAGTAACTAG,503
GAAGCAAAAAGATTTCACGTTGTTCGGGAGGTATAG,555
CTAATAAAAGCATATTACGTGGGGTCGTAGTAATTC,493
GAACAAAACAAGCGTGTCATGTGAGCTTTTTTGTAG,2570
GAACCGTGCCTGCACCTCGTGTATCGTGATGCGTAG,1230
CTATATACATAAGATCTGGTGAAGCGAGGAGTCTTC,519
CTATACAGCAGCAATCACGACTCTACATGCCATTTC,595
CTAACACTAACAAAGAAGGTGACTTGCGCTTAATTC,558
CTAAAAAGTGTCAATCACCTGGATGCATAAGGATTC,601
GAATCTCGGTTGAGCAACGTGAAAAACCTTCCATAG,532
CCTAACTACTATAATCACCTGATATAGCTTCGTACA,2560
GAATGTTTTGTTTAAAACGTGTATTGATGGTGTTAG,588
GAACCAAAAAGTCAGCACGTGATCTGCTAAGAATAG,22100
CTAAAGCACAAAAAGCTGACATCAGGAAGAAAATTC,547

# Set 6 — technique: universal PBM; molecule type: double-stranded DNA, one strand shown; medium: in vitro; tested at: not given; reading: higher = stronger binding
# Target: Sal-like protein 4, full length isoform B (SALL4, Homo sapiens, UniProt Q9UJQ4-2, residues 1-616)
# Setting: 8-mer, flanks averaged, mean of replicates
Strand,E-score
ATTGTTTA,0.343
GAACGGTA,0.0394
GGACCTAA,-0.116
GAATGCTC,-0.147
CACGGACC,-0.28
CTCAATTA,0.173
CAAATACA,0.257
ATTTAGGC,0.109
AGAAAAAT,0.326
GCACTTTA,0.174
CCATGTAC,0.0789
AGGACGGA,-0.2
ACCCGGTC,-0.377
CCCTCTCC,-0.315
GAGTCCGA,0.0257
GAACCTTA,-0.0118
CAAAGCTC,-0.197
GGGATAAC,0.0294
TTAGAGAA,0.1
CATCAGGG,-0.0558
GAACGACC,-0.208
ACCGCGCG,-0.332

# Some of these lines once more (set 2):
Strand,7-mer Z-score
GCCAAGA,-0.021
AUAAACU,1.26
CGAAAAA,13.1
AGAUAUU,-0.344
AUGCUGC,-0.213
UUAUAGA,-0.0826
GUGGGCU,0.0932
AUCGCAG,-0.166
CUCCUAC,-0.325
